Experimental data of several laboratories.
± marks the error that the study gave.
Sequence of UniProt P11229 (whole entry, unmodified, looked up): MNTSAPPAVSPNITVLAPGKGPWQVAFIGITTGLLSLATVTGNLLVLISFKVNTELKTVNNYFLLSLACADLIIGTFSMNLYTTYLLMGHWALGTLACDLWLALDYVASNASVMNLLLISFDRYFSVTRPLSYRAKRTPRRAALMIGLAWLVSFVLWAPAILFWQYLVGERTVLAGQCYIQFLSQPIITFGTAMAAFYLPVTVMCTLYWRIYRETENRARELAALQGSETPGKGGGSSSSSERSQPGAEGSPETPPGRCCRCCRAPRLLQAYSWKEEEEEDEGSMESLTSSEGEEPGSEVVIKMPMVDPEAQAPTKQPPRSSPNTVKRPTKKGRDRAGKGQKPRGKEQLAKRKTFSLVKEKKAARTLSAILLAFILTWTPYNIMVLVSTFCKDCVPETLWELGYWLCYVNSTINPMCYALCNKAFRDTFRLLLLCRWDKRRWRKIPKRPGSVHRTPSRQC

Substance	target or system	assay	system	setting	how to read	endpoint	value
COc1cccc2c1C(=O)c1c(O)c3c(c(O)c1C2=O)C[C@@](O)(C(=O)CO)C[C@@H]3O[C@H]1C[C@H](N)[C@H](O)[C@H](C)O1	A549	qPCR, item: mTOR	–	IC50, 24 h	reference: untreated cancer cells	mRNA level	0.18 ± 0.07 fold
SDGR	BHK	cell spreading on fibronectin	peptide	up to 1.0 mg/mL, 60 min, with: fibronectin 2 µg/mL coat	–	inhibition	inhibited
C[C@H]1[C@H](C)CC[C@]2(C)CC[C@]3(C)C(=CC[C@@H]4[C@@]5(C)CC[C@@H](O)[C@](C)(C(=O)O)[C@@H]5CC[C@]43C)[C@H]12	WI-38	TNF-α release, inhibitor, ELISA	–	10 µM, LPS-stimulated	–	inhibition	28%
Brc1ccc(-c2cc3ccccc3[nH]2)cc1	RAW264.7	NO release, inhibitor, Griess	–	50 µM, 20 h, LPS-stimulated	–	inhibition	42.4%
O=C(c1ccc(COc2ccccc2-c2cc(=O)n(C3CCCCC3O)cn2)cc1)N1CCCCC1 (stereo not shown)	Muscarinic acetylcholine receptor M1 (CHRM1, Homo sapiens, UniProt P11229)	positive allosteric modulator, IP1 accumulation	CHO-M1 cells	1 µM, 60 min, 37 °C, with: ACh	reference: ACh alone, higher = stronger potentiation	ΔpEC50 of ACh	0.08 ± 0.12 log units
CO[C@@]12[C@H](COC(N)=O)C3=C(C(=O)C(C)=C(N)C3=O)N1C[C@@H]1N[C@@H]12	U-937	cell growth or viability, ATP luminescence	–	10 µM, 72 h	–	inhibition	100%
COc1ccc2c(c1)c(CC(=O)O)c(C)n2C(=O)c1ccc(Cl)cc1	WI-38	IL-6 release, inhibitor, ELISA	–	10 µM, LPS-stimulated	–	inhibition	7.7%
Cc1cc(Nc2ncc(Cl)c(Nc3ccccc3S(=O)(=O)C(C)C)n2)c(OC(C)C)cc1C1CCNCC1	NCI-H2228	cell growth or viability, MTT	–	0.008 µg/mL, 72 h	–	inhibition	36.6%
O=[N+]([O-])c1ccc(O[C@H]2OC[C@@H](O)[C@H](O)[C@H]2O)cc1	A375-SM	cell adhesion, inhibitor	–	concentration not given, with: 33-kD fibronectin fragment	–	inhibition	no effect
CC(C)C[C@H](NC(=O)[C@H](CO)NC(=O)[C@H](CCCNC(=N)N)NC(=O)[C@H](CC(=O)O)NC(=O)[C@H](CCC(=O)O)NC(=O)[C@H](C)NC(=O)[C@@H]1CCCN1C(=O)[C@H](C)NC(=O)[C@H](CCC(=O)O)NC(=O)[C@@H]1CCCN1C(=O)[C@@H]1CCCN1)C(N)=O	–	HPLC-EC	rat F344, unilateral 6-OHDA lesion, ipsilateral striatum	intranasal, 300 µg daily, 5 weeks post lesion	–	DOPAC level	58 ± 46 ng/g
CC(C)C[C@H](NC(=O)[C@@H](O)[C@H](N)Cc1ccccc1)C(=O)O	U-937	cell proliferation	–	145 µM, day 4	–	inhibition	71 ± 8.6%
ON=Cc1c(-c2ccccc2)[nH]c2ccccc12	RAW264.7	NO release, inhibitor, Griess	–	50 µM, 20 h, LPS-stimulated	–	inhibition	97.7%
O=C(Cn1cc(COc2ccccc2-c2nc(Cc3ccccc3)no2)nn1)NNC(=S)Nc1ccccc1	A549	qPCR, item: EGFR	–	IC50, 24 h	reference: untreated cancer cells	mRNA level	0.29 ± 0.08 fold
Cc1ccc(-c2cc3ccccc3[nH]2)cc1	RAW264.7	NO release, inhibitor, Griess	–	50 µM, 20 h, LPS-stimulated	–	inhibition	39%
Cc1ccc(-c2cc(C(F)(F)F)nn2-c2ccc(S(N)(=O)=O)cc2)cc1	WI-38	TNF-α release, inhibitor, ELISA	–	10 µM, LPS-stimulated	–	inhibition	25.2%
CCCCC[C@H](CC(=O)NO)C(=O)N[C@H](C(=O)N1CCC[C@H]1CO)C(C)C	U-937	cell proliferation	–	13 µM, day 4, with: BSO 25 µM, 20 h preincubation	–	inhibition	48.4 ± 25.7%

Repeated from above:
Substance	target or system	assay	system	setting	how to read	endpoint	value
O=C(c1ccc(COc2ccccc2-c2cc(=O)n(C3CCCCC3O)cn2)cc1)N1CCCCC1 (stereo not shown)	Muscarinic acetylcholine receptor M1 (CHRM1, Homo sapiens, UniProt P11229)	positive allosteric modulator, IP1 accumulation	CHO-M1 cells	1 µM, 60 min, 37 °C, with: ACh	reference: ACh alone, higher = stronger potentiation	ΔpEC50 of ACh	0.08 ± 0.12 log units
CC(C)C[C@H](NC(=O)[C@@H](O)[C@H](N)Cc1ccccc1)C(=O)O	U-937	cell proliferation	–	145 µM, day 4	–	inhibition	71 ± 8.6%
